Experimental data from different studies.
Parts stem from different laboratories: compare values within a part only.
Sequence of UniProt O75716 (whole entry, looked up): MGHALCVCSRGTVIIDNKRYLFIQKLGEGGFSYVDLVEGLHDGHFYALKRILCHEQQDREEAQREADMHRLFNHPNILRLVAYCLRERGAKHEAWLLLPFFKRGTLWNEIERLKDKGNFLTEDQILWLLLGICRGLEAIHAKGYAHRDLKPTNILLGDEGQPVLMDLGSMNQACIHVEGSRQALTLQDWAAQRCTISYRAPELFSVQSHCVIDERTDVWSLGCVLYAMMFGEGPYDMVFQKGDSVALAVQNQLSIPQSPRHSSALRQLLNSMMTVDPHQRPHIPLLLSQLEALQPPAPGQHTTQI
Sequence of UniProt Q15375 (whole entry, looked up): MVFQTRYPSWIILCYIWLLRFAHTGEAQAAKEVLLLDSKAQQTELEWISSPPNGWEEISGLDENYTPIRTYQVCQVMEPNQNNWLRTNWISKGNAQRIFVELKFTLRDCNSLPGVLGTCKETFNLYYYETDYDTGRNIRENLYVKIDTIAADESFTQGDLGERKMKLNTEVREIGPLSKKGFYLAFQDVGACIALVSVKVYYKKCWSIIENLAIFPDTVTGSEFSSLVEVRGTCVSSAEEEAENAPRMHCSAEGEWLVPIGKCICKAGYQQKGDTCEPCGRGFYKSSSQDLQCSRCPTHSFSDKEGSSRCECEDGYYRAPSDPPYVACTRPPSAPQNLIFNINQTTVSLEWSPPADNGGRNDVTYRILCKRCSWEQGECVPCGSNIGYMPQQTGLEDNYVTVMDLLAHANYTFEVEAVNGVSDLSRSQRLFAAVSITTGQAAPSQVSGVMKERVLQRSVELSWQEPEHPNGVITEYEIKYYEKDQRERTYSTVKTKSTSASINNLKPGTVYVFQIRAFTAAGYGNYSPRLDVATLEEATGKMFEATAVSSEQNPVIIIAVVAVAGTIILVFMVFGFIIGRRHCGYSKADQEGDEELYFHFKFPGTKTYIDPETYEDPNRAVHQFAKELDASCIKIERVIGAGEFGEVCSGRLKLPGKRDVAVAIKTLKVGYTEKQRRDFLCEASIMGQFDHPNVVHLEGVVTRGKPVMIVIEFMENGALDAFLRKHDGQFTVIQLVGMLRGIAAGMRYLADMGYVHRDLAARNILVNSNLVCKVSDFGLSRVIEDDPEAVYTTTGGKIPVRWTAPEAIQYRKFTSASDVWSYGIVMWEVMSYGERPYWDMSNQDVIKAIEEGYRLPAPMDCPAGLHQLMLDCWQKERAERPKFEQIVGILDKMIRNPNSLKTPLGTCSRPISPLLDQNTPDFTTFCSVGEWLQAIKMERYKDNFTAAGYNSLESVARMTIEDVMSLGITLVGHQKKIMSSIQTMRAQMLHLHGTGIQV
Sequence of UniProt O75460 (whole entry, looked up): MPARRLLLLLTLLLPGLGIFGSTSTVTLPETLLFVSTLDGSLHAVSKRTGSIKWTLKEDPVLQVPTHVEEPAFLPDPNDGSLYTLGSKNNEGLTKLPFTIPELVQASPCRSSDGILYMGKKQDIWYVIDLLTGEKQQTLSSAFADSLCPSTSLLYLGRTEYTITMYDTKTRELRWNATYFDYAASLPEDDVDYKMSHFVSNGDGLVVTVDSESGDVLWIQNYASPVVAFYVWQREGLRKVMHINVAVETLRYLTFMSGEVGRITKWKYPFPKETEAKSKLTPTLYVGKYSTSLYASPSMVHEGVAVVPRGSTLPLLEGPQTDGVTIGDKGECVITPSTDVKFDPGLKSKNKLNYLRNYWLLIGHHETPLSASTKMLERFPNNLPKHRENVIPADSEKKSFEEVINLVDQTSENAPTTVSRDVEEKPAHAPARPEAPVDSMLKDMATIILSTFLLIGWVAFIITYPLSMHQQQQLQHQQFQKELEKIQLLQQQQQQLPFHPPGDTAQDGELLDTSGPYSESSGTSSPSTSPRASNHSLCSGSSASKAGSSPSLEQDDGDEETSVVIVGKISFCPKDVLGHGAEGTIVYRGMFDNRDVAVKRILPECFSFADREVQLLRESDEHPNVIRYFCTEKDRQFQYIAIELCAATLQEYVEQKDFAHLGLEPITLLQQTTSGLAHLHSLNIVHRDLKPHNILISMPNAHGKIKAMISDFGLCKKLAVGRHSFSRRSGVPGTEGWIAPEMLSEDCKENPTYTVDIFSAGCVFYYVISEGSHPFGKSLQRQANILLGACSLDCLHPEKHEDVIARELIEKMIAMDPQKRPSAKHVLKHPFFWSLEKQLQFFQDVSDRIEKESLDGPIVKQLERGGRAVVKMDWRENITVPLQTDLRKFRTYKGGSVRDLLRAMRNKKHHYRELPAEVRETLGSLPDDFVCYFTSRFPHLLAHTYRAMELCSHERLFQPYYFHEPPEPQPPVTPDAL
Sequence of UniProt Q16816 (whole entry, looked up): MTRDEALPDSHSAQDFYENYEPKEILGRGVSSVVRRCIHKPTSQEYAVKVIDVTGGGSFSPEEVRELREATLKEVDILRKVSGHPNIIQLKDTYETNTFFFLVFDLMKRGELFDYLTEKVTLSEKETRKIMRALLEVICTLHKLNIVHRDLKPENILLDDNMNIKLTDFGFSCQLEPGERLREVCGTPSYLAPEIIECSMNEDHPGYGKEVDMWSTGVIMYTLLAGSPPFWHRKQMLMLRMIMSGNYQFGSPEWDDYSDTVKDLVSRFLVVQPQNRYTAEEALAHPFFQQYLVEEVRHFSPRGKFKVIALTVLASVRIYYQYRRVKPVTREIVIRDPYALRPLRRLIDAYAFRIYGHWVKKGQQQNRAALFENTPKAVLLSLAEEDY
Sequence of UniProt P36896 (whole entry, looked up): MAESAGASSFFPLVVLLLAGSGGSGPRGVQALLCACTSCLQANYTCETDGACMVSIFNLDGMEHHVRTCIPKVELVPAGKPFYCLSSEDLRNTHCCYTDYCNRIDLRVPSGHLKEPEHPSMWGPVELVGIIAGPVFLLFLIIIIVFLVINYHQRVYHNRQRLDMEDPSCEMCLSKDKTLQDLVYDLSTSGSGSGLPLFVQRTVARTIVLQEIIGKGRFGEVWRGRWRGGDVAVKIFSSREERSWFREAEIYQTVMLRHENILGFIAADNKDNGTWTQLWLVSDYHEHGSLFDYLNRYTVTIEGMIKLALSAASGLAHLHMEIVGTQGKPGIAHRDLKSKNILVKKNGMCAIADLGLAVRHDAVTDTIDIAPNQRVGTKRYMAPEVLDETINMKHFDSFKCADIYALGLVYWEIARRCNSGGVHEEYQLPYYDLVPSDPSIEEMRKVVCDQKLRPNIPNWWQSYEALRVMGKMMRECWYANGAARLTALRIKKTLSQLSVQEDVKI
Sequence of UniProt P06493 (whole entry, looked up): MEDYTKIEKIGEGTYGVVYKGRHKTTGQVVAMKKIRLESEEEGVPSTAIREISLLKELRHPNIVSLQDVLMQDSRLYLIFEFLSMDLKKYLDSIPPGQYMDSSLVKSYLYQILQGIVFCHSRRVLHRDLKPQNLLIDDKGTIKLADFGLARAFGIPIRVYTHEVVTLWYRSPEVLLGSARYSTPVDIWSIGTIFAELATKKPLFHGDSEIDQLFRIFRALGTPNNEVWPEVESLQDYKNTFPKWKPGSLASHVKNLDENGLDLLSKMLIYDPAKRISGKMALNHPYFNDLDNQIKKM

Block 1 — method: competition with immobilised ligand; tested at: 1 µM
SMILES: CC(=O)N1CCC(c2ccc(C(=O)NC(=N)N)cc2C(F)(F)F)CC1
| target | assay | remaining binding |
| --- | --- | --- |
| Ribosomal protein S6 kinase alpha-4, N-terminal kinase domain (RPS6KA4, Homo sapiens, UniProt O75676) | cell-free assay | 100% |
| MAP3K1 (Homo sapiens, UniProt Q13233) | cell-free assay | 96% |
| MAP2K4 (Homo sapiens, UniProt P45985) | cell-free assay | 95% |
| SRC (Homo sapiens, UniProt P12931) | cell-free assay | 100% |
| ACVR1B (Homo sapiens, UniProt P36896) | cell-free assay | 93% |
| MET (Homo sapiens, UniProt P08581, Y1235D) | cell-free assay | 100% |
| EPHA7 (Homo sapiens, UniProt Q15375) | cell-free assay | 100% |
| MYLK4 (Homo sapiens, UniProt Q86YV6) | cell-free assay | 100% |
| LIM domain kinase 2 (LIMK2, Homo sapiens, UniProt P53671) | cell-free assay | 91% |
| CSNK2A2 (Homo sapiens, UniProt P19784) | cell-free assay | 100% |
| PIK3CA (Homo sapiens, UniProt P42336, E542K) | cell-free assay | 82% |
| EGFR (Homo sapiens, UniProt P00533, L858R) | cell-free assay | 100% |
| MAP3K19 (Homo sapiens, UniProt Q56UN5) | cell-free assay | 100% |
| BMPR2 (Homo sapiens, UniProt Q13873) | cell-free assay | 100% |
| TXK (Homo sapiens, UniProt P42681) | binding | 100% |
| CHUK (Homo sapiens, UniProt O15111) | cell-free assay | 100% |
| MAP3K4 (Homo sapiens, UniProt Q9Y6R4) | cell-free assay | 98% |
| SIK2 (Homo sapiens, UniProt Q9H0K1) | cell-free assay | 100% |
| FGFR1 (Homo sapiens, UniProt P11362) | cell-free assay | 100% |
| FLT3 (Homo sapiens, UniProt P36888, D835V/ITD) | cell-free assay | 100% |
| ERN1 (Homo sapiens, UniProt O75460) | cell-free assay | 100% |
| STK16 (Homo sapiens, UniProt O75716) | cell-free assay | 100% |
| TTK (Homo sapiens, UniProt P33981) | cell-free assay | 100% |
| CSNK1A1L (Homo sapiens, UniProt Q8N752) | cell-free assay | 100% |

Block 2 — SMILES: COc1cc2ncc(-c3ccccc3)nc2cc1OC; effect on: enzyme activity; mode: inhibitor; tested at: 0.5 µM; relative to: control
| target | remaining activity |
| --- | --- |
| EPHB1 (Homo sapiens, UniProt P54762) | 92.8% |
| Cyclin-dependent kinase 1, with cyclin B (CDK1, Homo sapiens, UniProt P06493) | 105% |
| STK17A (Homo sapiens, UniProt Q9UEE5) | 95.5% |
| Cyclin-dependent kinase 4, with cyclin D3 (CDK4, Homo sapiens, UniProt P11802) | 97.5% |
| WNK3 (Homo sapiens, UniProt Q9BYP7) | 97.5% |
| Cyclin-dependent kinase 6, with cyclin D3 (CDK6, Homo sapiens, UniProt Q00534) | 93.7% |
| RPS6KA6 (Homo sapiens, UniProt Q9UK32) | 98.5% |
| PHKG1 (Homo sapiens, UniProt Q16816) | 92.4% |
| AXL (Homo sapiens, UniProt P30530) | 95.2% |
| RPS6KA5 (Homo sapiens, UniProt O75582) | 91.8% |
| PDPK1 (Homo sapiens, UniProt O15530) | 92.6% |
| SRMS (Homo sapiens, UniProt Q9H3Y6) | 102% |
| STK16 (Homo sapiens, UniProt O75716) | 93.5% |
| CAMK2B (Homo sapiens, UniProt Q13554) | 93.3% |
| BLK (Homo sapiens, UniProt P51451) | 103% |
| PRKACG (Homo sapiens, UniProt P22612) | 87.6% |
| MAP4K4 (Homo sapiens, UniProt O95819) | 62.1% |
| MAPKAPK3 (Homo sapiens, UniProt Q16644) | 86.7% |
| DYRK3 (Homo sapiens, UniProt O43781) | 95.4% |
| HIPK2 (Homo sapiens, UniProt Q9H2X6) | 78.7% |
| HIPK4 (Homo sapiens, UniProt Q8NE63) | 86.4% |
| EPHB4 (Homo sapiens, UniProt P54760) | 86.4% |
| TSSK2 (Homo sapiens, UniProt Q96PF2) | 85.7% |

Block 3 — SMILES: C=CCc1ccc(O)c(-c2cc(CC=C)ccc2O)c1
ANO1 del476-501/R541A: Anoctamin-1 (ANO1, Homo sapiens, UniProt Q5XXA6, del476-501/R541A)
Sequence of UniProt Q5XXA6 (whole entry, unmodified, looked up): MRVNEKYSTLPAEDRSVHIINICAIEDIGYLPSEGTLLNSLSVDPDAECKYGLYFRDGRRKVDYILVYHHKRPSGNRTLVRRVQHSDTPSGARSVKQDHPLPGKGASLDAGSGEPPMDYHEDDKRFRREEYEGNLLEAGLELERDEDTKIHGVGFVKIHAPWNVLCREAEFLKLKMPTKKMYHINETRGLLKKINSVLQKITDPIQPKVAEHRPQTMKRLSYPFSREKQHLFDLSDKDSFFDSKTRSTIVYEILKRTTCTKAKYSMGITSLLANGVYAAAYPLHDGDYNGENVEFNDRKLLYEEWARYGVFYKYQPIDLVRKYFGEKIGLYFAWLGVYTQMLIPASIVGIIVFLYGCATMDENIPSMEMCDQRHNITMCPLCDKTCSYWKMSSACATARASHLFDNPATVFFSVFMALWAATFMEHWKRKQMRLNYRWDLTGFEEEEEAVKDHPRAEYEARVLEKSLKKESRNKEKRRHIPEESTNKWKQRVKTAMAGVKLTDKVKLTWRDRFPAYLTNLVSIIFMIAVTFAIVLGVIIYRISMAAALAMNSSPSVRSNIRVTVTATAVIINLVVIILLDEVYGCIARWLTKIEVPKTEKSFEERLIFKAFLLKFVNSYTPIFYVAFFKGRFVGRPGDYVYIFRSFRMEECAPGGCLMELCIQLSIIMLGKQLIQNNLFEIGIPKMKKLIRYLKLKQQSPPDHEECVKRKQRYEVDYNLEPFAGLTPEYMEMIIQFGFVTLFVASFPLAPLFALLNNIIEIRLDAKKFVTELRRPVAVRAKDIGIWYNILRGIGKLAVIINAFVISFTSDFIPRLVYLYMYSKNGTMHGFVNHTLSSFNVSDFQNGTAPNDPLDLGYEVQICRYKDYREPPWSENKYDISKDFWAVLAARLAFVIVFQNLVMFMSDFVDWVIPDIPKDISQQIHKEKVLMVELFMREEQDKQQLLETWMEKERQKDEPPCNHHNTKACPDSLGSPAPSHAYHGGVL
| target | assay | setting | scale | normalized current |
| --- | --- | --- | --- | --- |
| human TMEM16A K603A/E623A | chloride current, inhibitor, inside-out patch clamp | 30 µM, at -80 mV |  | -0.251 |
| Anoctamin-1 (ANO1, Homo sapiens, UniProt Q5XXA6, del476-501/E659A) | chloride current, inside-out patch clamp | 30 µM, membrane voltage -40 mV |  | -0.397 |
| Anoctamin-1 (ANO1, Homo sapiens, UniProt Q5XXA6, del476-501/E659A/K629A) | chloride current, inside-out patch clamp | 30 µM, membrane voltage 100 mV |  | 0.799 |
| TMEM16A (human) K603A/E623A | chloride current, inside-out patch clamp | 30 µM, membrane voltage 20 mV |  | 0.0842 |
| ANO1 del476-501/R541A | chloride current, inside-out patch clamp | 30 µM, membrane voltage 80 mV |  | 0.543 |
| ANO1 del476-501/R541A | chloride current, whole-cell voltage clamp | 3 µM, membrane voltage -20 mV, together with: 4 µM Ca2+ (saturating) |  | -0.135 |
| Anoctamin-1 (ANO1, Homo sapiens, UniProt Q5XXA6, del476-501/K629A) | chloride current, inhibitor, whole-cell voltage clamp | 3 µM | relative to: untreated | 0.967 |
| Anoctamin-1 (ANO1, Homo sapiens, UniProt Q5XXA6) | chloride current, inhibitor, inside-out patch clamp | 30 µM, wild type at -100 mV |  | -1.14 |
| TMEM16A (human) K603A/E623A | chloride current, inside-out patch clamp | 30 µM, membrane voltage 100 mV |  | 0.706 |
| ANO1 del476-501/R541A | chloride current, whole-cell voltage clamp | 30 µM, membrane voltage 0 mV, together with: 4 µM Ca2+ (saturating) |  | -0.0028 |
| Anoctamin-1 (ANO1, Homo sapiens, UniProt Q5XXA6, del476-501/E649A) | ion current, inside-out patch clamp | 30 µM, E623A mutant at 100 mV |  | 0.787 |
| ANO1 del476-501/R541A | chloride current, inside-out patch clamp | 30 µM, membrane voltage -60 mV |  | -0.325 |

Block 4 — effect on: enzyme activity; mode: inhibitor; tested at: 10 µM
Target: Calcium/calmodulin-dependent protein kinase type II subunit alpha (CAMK2A, Homo sapiens, UniProt Q9UQM7)
Sequence of UniProt Q9UQM7 (whole entry, looked up): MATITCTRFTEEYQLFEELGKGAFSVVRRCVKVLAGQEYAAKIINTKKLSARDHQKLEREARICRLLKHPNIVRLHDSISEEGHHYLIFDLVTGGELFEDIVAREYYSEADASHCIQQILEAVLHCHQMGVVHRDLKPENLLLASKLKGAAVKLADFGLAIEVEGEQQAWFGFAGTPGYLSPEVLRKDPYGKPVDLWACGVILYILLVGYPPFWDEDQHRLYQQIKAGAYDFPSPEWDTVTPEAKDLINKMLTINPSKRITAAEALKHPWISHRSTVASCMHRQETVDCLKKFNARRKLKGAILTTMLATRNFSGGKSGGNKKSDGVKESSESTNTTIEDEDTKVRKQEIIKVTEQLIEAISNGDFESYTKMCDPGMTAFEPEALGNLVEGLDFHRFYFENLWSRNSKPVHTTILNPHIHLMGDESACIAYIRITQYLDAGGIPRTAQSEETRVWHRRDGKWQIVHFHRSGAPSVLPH
| SMILES | inhibition |
| --- | --- |
| CCCCC1OC(=O)c2ccccc21 (stereo not shown) | 20% |
| Cc1cncc(CN2CCC(=C3c4ccc(Cl)cc4CCc4cccnc43)CC2)c1 | -8% |
| CO[C@@H]1O[C@H](CO)[C@H](O)[C@H](O)[C@H]1O | -17% |
| C[C@@H]1O[C@@H](OC[C@H]2O[C@@H](Oc3c(-c4ccc(O)cc4)oc4cc(O)cc(O)c4c3=O)[C@H](O)[C@@H](O)[C@H]2O)[C@H](O)[C@H](O)[C@H]1O | 24% |
| CC12CC3OC4O[C@H](CO)[C@@H](O)[C@H](O)[C@H]4OC34CC1C4(COC(=O)c1ccccc1)C(=O)O2 (stereo partly shown) | -10% |
| C=C1CC[C@H]2C(=C)CC[C@H]3C(=C)C(=O)O[C@@H]3[C@@H]12 | 1% |
| CC(=O)N[C@@H](CC(C)C)C(=O)N[C@@H](CC(C)C)C(=O)N[C@H](C=O)CCCN=C(N)N | 4% |
| COc1ccc2[nH]cc(CC(=O)O)c2c1 | 9% |
| CCCCC/C=C\C/C=C\CCCCCCCCO | -25% |
| CCCCCCCCCCCCCCCC[N+](C)(C)CCN(Cc1ccc(OC)cc1)c1ncccn1 | -10% |
| COc1ccc(O)cc1 | -9% |

Excerpt of the above (block 3):
| target | assay | setting | scale | normalized current |
| --- | --- | --- | --- | --- |
| Anoctamin-1 (ANO1, Homo sapiens, UniProt Q5XXA6, del476-501/E659A/K629A) | chloride current, inside-out patch clamp | 30 µM, membrane voltage 100 mV |  | 0.799 |
| ANO1 del476-501/R541A | chloride current, inside-out patch clamp | 30 µM, membrane voltage 80 mV |  | 0.543 |
| Anoctamin-1 (ANO1, Homo sapiens, UniProt Q5XXA6, del476-501/E659A) | chloride current, inside-out patch clamp | 30 µM, membrane voltage -40 mV |  | -0.397 |
| ANO1 del476-501/R541A | chloride current, inside-out patch clamp | 30 µM, membrane voltage -60 mV |  | -0.325 |
| human TMEM16A K603A/E623A | chloride current, inhibitor, inside-out patch clamp | 30 µM, at -80 mV |  | -0.251 |
| ANO1 del476-501/R541A | chloride current, whole-cell voltage clamp | 30 µM, membrane voltage 0 mV, together with: 4 µM Ca2+ (saturating) |  | -0.0028 |
| TMEM16A (human) K603A/E623A | chloride current, inside-out patch clamp | 30 µM, membrane voltage 20 mV |  | 0.0842 |
